Earlier results that unrelated publications cite.
Protocols differ between the studies behind these lines. Converted amounts (≈) assume the structure as drawn.
CYP3A4: Cytochrome P450 3A4 (CYP3A4, Homo sapiens, UniProt P08684)
Sequence of UniProt P08684 (whole entry, looked up): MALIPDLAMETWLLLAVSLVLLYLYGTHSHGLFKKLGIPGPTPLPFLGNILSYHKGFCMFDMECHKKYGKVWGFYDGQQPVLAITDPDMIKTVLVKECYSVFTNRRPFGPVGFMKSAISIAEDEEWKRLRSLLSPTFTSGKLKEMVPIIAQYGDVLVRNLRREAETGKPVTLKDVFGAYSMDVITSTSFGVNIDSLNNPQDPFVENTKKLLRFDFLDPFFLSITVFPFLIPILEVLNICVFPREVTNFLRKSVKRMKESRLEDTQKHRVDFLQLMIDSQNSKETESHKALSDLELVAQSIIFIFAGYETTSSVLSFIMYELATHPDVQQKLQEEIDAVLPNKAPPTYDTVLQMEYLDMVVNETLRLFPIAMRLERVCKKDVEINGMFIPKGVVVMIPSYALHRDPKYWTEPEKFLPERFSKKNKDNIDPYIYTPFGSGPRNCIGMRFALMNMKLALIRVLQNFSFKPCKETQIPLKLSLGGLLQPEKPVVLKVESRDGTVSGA
Sequence of UniProt P08183 (whole entry, looked up): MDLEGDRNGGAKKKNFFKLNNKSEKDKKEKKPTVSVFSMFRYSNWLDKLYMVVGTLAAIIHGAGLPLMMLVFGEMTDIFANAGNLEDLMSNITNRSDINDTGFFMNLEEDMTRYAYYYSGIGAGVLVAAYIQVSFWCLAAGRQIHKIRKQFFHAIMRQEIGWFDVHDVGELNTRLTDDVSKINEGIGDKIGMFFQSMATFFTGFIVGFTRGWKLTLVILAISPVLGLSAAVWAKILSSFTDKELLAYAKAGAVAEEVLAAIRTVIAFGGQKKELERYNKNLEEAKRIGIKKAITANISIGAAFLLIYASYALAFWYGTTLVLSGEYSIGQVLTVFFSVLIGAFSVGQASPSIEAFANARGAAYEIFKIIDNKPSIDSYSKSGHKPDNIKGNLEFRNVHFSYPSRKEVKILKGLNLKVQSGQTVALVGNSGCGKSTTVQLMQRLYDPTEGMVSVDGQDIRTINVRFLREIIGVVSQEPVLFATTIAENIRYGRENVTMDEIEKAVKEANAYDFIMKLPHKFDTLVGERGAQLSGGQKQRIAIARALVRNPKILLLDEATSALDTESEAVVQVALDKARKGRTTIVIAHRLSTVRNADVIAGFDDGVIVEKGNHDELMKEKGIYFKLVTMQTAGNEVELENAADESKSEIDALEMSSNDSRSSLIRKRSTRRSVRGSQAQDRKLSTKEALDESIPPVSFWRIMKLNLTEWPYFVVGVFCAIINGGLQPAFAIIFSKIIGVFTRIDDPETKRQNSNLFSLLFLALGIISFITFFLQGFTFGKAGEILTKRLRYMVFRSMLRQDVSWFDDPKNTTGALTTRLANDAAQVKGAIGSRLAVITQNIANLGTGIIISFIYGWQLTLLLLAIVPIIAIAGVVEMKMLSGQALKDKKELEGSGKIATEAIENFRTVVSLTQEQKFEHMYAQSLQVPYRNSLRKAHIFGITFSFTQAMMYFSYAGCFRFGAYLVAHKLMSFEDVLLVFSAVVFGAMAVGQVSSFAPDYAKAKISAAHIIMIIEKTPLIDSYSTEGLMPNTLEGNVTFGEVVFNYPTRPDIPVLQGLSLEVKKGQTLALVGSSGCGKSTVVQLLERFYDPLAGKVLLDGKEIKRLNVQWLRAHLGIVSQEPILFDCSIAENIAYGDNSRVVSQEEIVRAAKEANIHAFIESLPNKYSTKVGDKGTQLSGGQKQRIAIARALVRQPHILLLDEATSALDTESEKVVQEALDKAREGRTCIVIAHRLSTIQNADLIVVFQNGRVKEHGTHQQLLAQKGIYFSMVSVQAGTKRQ
Sequence of UniProt Q96Q40 (whole entry, looked up): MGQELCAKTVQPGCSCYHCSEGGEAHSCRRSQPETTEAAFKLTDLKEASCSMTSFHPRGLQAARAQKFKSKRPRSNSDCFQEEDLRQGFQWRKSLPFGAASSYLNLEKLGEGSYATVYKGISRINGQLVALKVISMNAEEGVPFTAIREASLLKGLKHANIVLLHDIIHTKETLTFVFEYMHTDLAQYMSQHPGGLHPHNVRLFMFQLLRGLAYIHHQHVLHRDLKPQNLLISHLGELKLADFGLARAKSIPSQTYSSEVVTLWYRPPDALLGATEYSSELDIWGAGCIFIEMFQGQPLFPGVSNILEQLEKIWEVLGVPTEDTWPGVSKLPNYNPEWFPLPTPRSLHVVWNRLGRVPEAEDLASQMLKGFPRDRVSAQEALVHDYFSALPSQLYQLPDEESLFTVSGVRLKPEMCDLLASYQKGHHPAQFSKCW
Sequence of UniProt Q9UNQ0 (whole entry, looked up): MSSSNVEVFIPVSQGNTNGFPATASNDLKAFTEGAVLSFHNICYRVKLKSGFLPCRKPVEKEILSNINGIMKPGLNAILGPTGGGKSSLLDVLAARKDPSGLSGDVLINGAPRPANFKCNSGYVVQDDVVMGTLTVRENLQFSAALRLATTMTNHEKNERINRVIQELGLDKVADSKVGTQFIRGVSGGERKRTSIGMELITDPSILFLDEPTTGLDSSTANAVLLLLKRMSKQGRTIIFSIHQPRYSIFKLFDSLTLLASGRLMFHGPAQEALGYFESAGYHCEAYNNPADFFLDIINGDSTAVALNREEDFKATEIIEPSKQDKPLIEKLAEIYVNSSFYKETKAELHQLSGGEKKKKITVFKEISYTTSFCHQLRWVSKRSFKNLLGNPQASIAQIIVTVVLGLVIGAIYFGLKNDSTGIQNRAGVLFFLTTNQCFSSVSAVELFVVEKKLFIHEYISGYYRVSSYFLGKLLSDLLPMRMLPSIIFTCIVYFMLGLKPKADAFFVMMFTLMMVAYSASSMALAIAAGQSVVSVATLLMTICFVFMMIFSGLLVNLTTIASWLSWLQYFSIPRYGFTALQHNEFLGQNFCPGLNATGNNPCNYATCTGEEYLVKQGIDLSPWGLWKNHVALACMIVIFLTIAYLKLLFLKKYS
Sequence of UniProt Q06278 (whole entry, looked up): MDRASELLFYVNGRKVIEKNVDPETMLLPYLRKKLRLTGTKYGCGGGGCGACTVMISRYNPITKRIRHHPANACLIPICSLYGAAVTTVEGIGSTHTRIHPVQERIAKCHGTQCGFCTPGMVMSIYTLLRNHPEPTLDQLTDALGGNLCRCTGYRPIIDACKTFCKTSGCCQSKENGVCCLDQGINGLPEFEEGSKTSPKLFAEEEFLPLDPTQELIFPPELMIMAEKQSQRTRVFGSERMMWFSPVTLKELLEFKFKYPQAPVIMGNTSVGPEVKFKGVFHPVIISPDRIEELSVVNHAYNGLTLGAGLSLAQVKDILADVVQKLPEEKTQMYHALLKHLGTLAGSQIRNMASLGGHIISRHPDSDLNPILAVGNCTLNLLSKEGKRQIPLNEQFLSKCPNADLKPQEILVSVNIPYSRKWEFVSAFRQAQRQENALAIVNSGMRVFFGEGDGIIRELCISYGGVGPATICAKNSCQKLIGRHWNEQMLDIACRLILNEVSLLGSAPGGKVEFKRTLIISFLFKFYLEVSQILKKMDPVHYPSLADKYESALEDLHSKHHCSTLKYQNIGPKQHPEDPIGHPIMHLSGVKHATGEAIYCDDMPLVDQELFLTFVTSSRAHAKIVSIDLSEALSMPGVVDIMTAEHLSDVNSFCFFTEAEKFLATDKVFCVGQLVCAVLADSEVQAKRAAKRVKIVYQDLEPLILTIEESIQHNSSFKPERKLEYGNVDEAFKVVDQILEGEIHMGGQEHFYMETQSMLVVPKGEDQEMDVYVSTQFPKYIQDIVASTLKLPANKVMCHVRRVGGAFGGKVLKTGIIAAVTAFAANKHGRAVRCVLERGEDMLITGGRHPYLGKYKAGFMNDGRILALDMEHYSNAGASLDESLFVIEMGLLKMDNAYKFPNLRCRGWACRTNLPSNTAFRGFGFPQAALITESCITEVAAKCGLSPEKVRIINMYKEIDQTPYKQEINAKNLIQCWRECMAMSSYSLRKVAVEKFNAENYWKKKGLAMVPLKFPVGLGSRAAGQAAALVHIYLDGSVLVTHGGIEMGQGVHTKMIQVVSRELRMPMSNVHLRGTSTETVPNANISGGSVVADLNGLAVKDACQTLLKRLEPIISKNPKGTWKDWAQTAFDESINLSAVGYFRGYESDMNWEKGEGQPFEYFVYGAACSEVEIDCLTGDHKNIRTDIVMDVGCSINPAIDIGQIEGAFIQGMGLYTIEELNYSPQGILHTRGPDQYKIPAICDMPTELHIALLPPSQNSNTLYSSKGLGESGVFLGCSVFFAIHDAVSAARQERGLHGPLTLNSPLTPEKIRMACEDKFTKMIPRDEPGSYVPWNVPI

The Km of `CC(O)C(C)n1ncn(-c2ccc(N3CCN(c4ccc(OCC5COC(Cn6cncn6)(c6ccc(Cl)cc6Cl)O5)cc4)CC3)cc2)c1=O` (stereo not drawn) is reported as 0.027 µM (human CYP3A4; substrate, measured: hydroxylation).
For `COc1ccc2cc(OCC3(C(=O)O)CN(C(=O)c4ccc(F)cc4)C3)ccc2c1`, transporter inhibition read “inhibited” (OATP1B1, OATP1B3 and MATE1; inhibitor; concentration not given).
With `C[C@H]1CN(C2COC2)CCN1c1ccc(Nc2cc(-c3ccnc(N4CCn5c(cc6c5CC(C)(C)C6)C4=O)c3CO)cn(C)c2=O)nc1` the IC50 was 7.15 µM (OATP1B3 (SLCO1B3) OATP1B3; literature geometric mean).
For `CC(C)n1c(=O)n(C)c2cnc3cc(F)c(-c4ccc(OCCCN5CCCCC5)nc4)cc3c21`, the half-life was 3.32 h (Aldehyde oxidase (Homo sapiens, UniProt Q06278); substrate; human liver cytosol).
`COc1ccc2[nH]c([S@@+]([O-])Cc3ncc(C)c(OC)c3C)nc2c1`: “fraction of intrinsic clearance” 27% (CYP3A; sulfone formation; in vitro).
`N#CCNC(=O)c1ccc(-c2ccnc(Nc3ccc(N4CCOCC4=O)cc3)n2)cc1`: inhibition “no inhibition” (CYP2B6; enzyme activity, inhibitor; concentration not given).
`Cc1ccc(C)c(OCCCC(C)(C)C(=O)O[C@@H]2O[C@H](C(=O)O)[C@@H](O)[C@H](O)[C@H]2O)c1` has an IC50 of 14.2 µM (OATP1B3 (SLCO1B3) OATP1B1; literature geometric mean).
`CO[C@H]1C[C@@H]2CC[C@@H](C)[C@@](O)(O2)C(=O)C(=O)N2CCCC[C@H]2C(=O)O[C@H]([C@H](C)C[C@@H]2CC[C@@H](O)[C@H](OC)C2)CC(=O)[C@H](C)/C=C(\C)[C@@H](O)[C@@H](OC)C(=O)[C@H](C)C[C@H](C)/C=C/C=C/C=C/1C` — result for “fraction unbound in microsomal incubation”: 0.43 (recombinant human CYP3A4).
The IC50 of `COC[C@H]1C[C@@H](c2ncc(-c3ccc4c(c3)COc3cc5c(ccc6nc([C@@H]7CC[C@H](C)N7C(=O)[C@@H](NC(=O)OC)C(C)C)[nH]c65)cc3-4)[nH]2)N(C(=O)[C@H](NC(=O)OC)c2ccccc2)C1` is reported as 0.127 µM (OATP1B3; literature minimum).
For `O=C(O)CN1CCNCCN(CC(=O)O)CCN(CC(=O)O)CC1`, the log KH1 was 10.1 (protonation constant; 0.15 M NaCl).
With `CC[C@H]1OC(=O)[C@H](C)[C@@H](O[C@H]2C[C@@](C)(OC)[C@@H](O)[C@H](C)O2)[C@H](C)[C@@H](O[C@@H]2O[C@H](C)C[C@H](N(C)C)[C@H]2O)[C@](C)(OC)C[C@@H](C)C(=O)[C@H](C)[C@@H](O)[C@]1(C)O` the Ki was 0.7 µM (SLCO1B3; inhibitor; Simcyp compound file).
For `CC(C)[C@@H](CC[C@@H](C)[C@H]1CC[C@H]2[C@@H]3[C@H](O)C[C@H]4C[C@@H](NCCCNCCCCN)CC[C@]4(C)[C@H]3CC[C@]12C)OS(=O)(=O)O`, the cytotoxicity reduction was 79% (α-synuclein; amyloid toxicity; concentration not given).
`CC(=O)Nc1ccc(O)cc1` gave a Vmax of 36400 pmol/min/mg protein (UGT2B15).
The CLint of `CCC(C)n1ncn(-c2ccc(N3CCN(c4ccc(OCC5COC(Cn6cncn6)(c6ccc(Cl)cc6Cl)O5)cc4)CC3)cc2)c1=O` (stereo not drawn) is reported as 1 µL/min/pmol (human CYP1A2; hydroxylation pathway).
For `Nc1cc(C(F)(F)F)c(-c2nc(N3CCOCC3)nc(N3CCOCC3)n2)cn1`, the remaining activity was 100% (CDK15 (Homo sapiens, UniProt Q96Q40); enzyme activity; 10 µM; baseline: untreated).
With `CC(C)=CCc1c(O)cc(O)c2c1O[C@H](c1ccc(O)cc1)CC2=O` the inhibition was > 90% (recombinant CYP1A2 (human); enzyme activity, inhibitor; 10 µM, with: acetanilide).
Under “plasma exposure increase”, `C[C@]1(c2nc3c(C(N)=O)cccc3[nH]2)CCCN1` is recorded as 1.5 fold (OCT1/2; OCT1/2 double-knockout mice; baseline: wild type).
For `C[C@H]1O[C@@H](O[C@H]2[C@@H](O)C[C@H](O[C@H]3[C@@H](O)C[C@H](O[C@H]4CC[C@@]5(C)[C@H](CC[C@@H]6[C@@H]5C[C@@H](O)[C@]5(C)[C@@H](C7=CC(=O)OC7)CC[C@]65O)C4)O[C@@H]3C)O[C@@H]2C)C[C@H](O)[C@@H]1O`, the efflux ratio was 8.6 to 15.8 (ABCB1 (Homo sapiens, UniProt P08183); substrate; iPSC-derived intestinal cells).
For `Cc1nccn1CC1CCc2c(c3ccccc3n2C)C1=O` (stereo not drawn), “brain distribution increase” read 4 fold (P-gp; P-gp deficient mice; baseline: wild type).
For `O=C(O)CN(CCN(CC(=O)O)CC(=O)O)CC(=O)O`, the log KH1 was 9.17 (protonation constant; 0.15 M NaCl).
For `O=C(O)C[C@H](O)C[C@H](O)/C=C/c1c(C2CC2)nc2ccccc2c1-c1ccc(F)cc1`, “share of hepatic uptake clearance” read 92% (OATP1B1).
With `O=c1[nH]ncn1-c1ccc(N2CCN(c3ccc(OCC4COC(Cn5cncn5)(c5ccc(Cl)cc5Cl)O4)cc3)CC2)cc1` (stereo not drawn) the kcat was 0.001 s⁻¹ (CYP3A4; substrate).
`CNCc1cn(S(=O)(=O)c2cccc(F)c2)c(-c2ccc(F)cc2F)c1OC` gave an IC50 of 80.2 µM (OCT2; transporter uptake, inhibitor).
`COc1cc(N2CCC(N3CCN(C)CC3)CC2)ccc1Nc1ncc(Cl)c(Nc2ccccc2P(C)(C)=O)n1` has an AUCinf decrease of 80% (CYP3A (human); drug interaction; human; 180 mg, with: rifampin 600 mg; baseline: compound alone).
`CO[C@H]1/C=C/O[C@@]2(C)Oc3c(C)c(O)c4c(O)c(c(/C=N/N5CCN(C)CC5)c(O)c4c3C2=O)NC(=O)/C(C)=C\C=C\[C@H](C)[C@H](O)[C@@H](C)[C@@H](O)[C@@H](C)[C@H](OC(C)=O)[C@@H]1C` has an IC50 of 1.48 µM (OATP1B3 (SLCO1B3) OATP1B3; literature geometric mean).
For `CC1(C)S[C@@H]2[C@H](NC(=O)[C@H](N)c3ccccc3)C(=O)N2[C@H]1C(=O)O`, the MIC was > 16 µg/mL (Enterobacter cloacae; clinical isolate RKI-No_76/15).
For `C#C[C@]1(O)CC[C@H]2[C@@H]3CCc4cc(O)ccc4[C@H]3CC[C@@]21C`, the Vmax was 408 pmol/min/mg protein (UGT1A1; substrate; human liver microsomes).
`CO[C@H]1/C=C/O[C@@]2(C)Oc3c(C)c(O)c4c(O)c(c(/C=N/N5CCN(C)CC5)c(O)c4c3C2=O)NC(=O)/C(C)=C\C=C\[C@H](C)[C@H](O)[C@@H](C)[C@@H](O)[C@@H](C)[C@H](OC(C)=O)[C@@H]1C` gave a Ki of 31 µM (BSEP; inhibitor).
The EC50 of `C=CC(=O)Nc1cc(Nc2nccc(-c3cn(C)c4ccccc34)n2)c(OCC(F)(F)F)nc1N(C)CCN(C)C` is reported as 0.25 µM (CYP3A4; enzyme induction, inducer; in vitro).
`C=CC(=O)Nc1cc(Nc2nccc(-c3cn(C)c4ccccc34)n2)c(OC)cc1N(C)CCN(C)C` has a metabolism contribution of 15.5% (CYP2A6).
For `Cc1ccc(C)c(OCCCC(C)(C)C(=O)O)c1`, the IC50 was 10 µM (OATP1B3; literature minimum).
For `COC(=O)N[C@@H](C)CNc1nccc(-c2cn(C(C)C)nc2-c2cc(Cl)cc(NS(C)(=O)=O)c2F)n1`, “contribution to metabolism” read 16% (CYP2C19 (human); human; human ADME study).
With `CN(C)C(=N)N=C(N)N` the CLint was 256 mL/min (OCT2; healthy human).
`O=C(O)[C@H]1O[C@@H](OC(=O)[C@H](c2ccccc2Cl)N2CCc3sccc3C2)[C@H](O)[C@@H](O)[C@@H]1O` gave a kinact of 2.82 h⁻¹ (CYP2C8 (human); inactivator).
For `O=C(O)CC1CCN(C(=O)c2ccc(Cl)c(Cn3ccc4cc(C(F)(F)F)cc(Cl)c43)c2Cl)CC1`, “rosuvastatin AUCtau increase” read 55% (ABCG2 (Homo sapiens, UniProt Q9UNQ0); inhibitor; human; oral, 375 mg once daily).
The IC50 of `C=C[C@@H]1C[C@]1(NC(=O)[C@@H]1C[C@@H]2CN1C(=O)[C@H](C(C)(C)C)NC(=O)O[C@@H]1C[C@H]1CCCCCc1nc3ccc(OC)cc3nc1O2)C(=O)NS(=O)(=O)C1CC1` is reported as 0.72 µM (OATP1B3 (SLCO1B3) OATP1B1; literature geometric mean).
With `CC(=O)C(C)n1ncn(-c2ccc(N3CCN(c4ccc(OC[C@H]5CO[C@](Cn6cncn6)(c6ccc(Cl)cc6Cl)O5)cc4)CC3)cc2)c1=O` (stereo partly drawn) the Ki was 0.00512 µM (CYP3A4; enzyme activity, competitive inhibitor).
With `C=C[C@@H]1C[C@]1(NC(=O)[C@@H]1C[C@@H]2CN1C(=O)[C@H](C(C)(C)C)NC(=O)O[C@@H]1C[C@H]1CCCCCc1nc3ccc(OC)cc3nc1O2)C(=O)NS(=O)(=O)C1CC1` the IC50 was > 100 µM (human CYP3A4; reversible inhibitor; human liver microsomes; with: testosterone).
For `CCn1c(=O)c(-c2cc(NC(=O)Nc3ccccc3)c(F)cc2Br)cc2cnc(N)cc21`, “plasma protein binding” read 99.7% (human serum albumin).
For `CO[C@H]1/C=C/O[C@@]2(C)Oc3c(C)c(O)c4c(O)c(c(/C=N/N5CCN(C)CC5)c(O)c4c3C2=O)NC(=O)/C(C)=C\C=C\[C@H](C)[C@H](O)[C@@H](C)[C@@H](O)[C@@H](C)[C@H](OC(C)=O)[C@@H]1C`, the Ki was 0.48 µM (OATP1B1 (human); competitive inhibitor).
`CNC(C)C1CCC(N)C(OC2C(N)CC(N)C(OC3OCC(C)(O)C(NC)C3O)C2O)O1` (stereo not drawn) has an MIC of 1 µg/mL (≈ 2.09 µM) (Enterobacter cloacae; clinical isolate RKI-No_243/15).
With `CC(O)c1cc(C(=O)N[C@@H](C)Cn2ccc(-c3ccc(C#N)c(Cl)c3)n2)[nH]n1` (stereo partly drawn) the IC50 was 3.8 µM (OATP1B1; literature minimum).

For quick reference, copied from above:
`N#CCNC(=O)c1ccc(-c2ccnc(Nc3ccc(N4CCOCC4=O)cc3)n2)cc1`: inhibition “no inhibition” (CYP2B6; enzyme activity, inhibitor; concentration not given).
For `CO[C@H]1/C=C/O[C@@]2(C)Oc3c(C)c(O)c4c(O)c(c(/C=N/N5CCN(C)CC5)c(O)c4c3C2=O)NC(=O)/C(C)=C\C=C\[C@H](C)[C@H](O)[C@@H](C)[C@@H](O)[C@@H](C)[C@H](OC(C)=O)[C@@H]1C`, the Ki was 0.48 µM (OATP1B1 (human); competitive inhibitor).
